Results from different studies.
Each line is one published result; not all experiments were run side by side. Several values in a cell are separate wells, animals, samples, runs or records. ± marks the error that the study gave.

With `CC[C@H](C)[C@H](NC(=O)[C@H](CCC(N)=O)NC(=O)[C@H](Cc1c[nH]cn1)NC(=O)[C@H](C)NC(=O)[C@H](CC(C)C)NC(=O)[C@H](CCCCN)NC(=O)[C@H](CCC(N)=O)NC(=O)[C@@H](NC(=O)[C@@H](NC(=O)[C@@H]1CSSC[C@H](NC(=O)CNC(=O)[C@H](Cc2ccccc2)NC(=O)[C@H](CO)NC(=O)[C@H](CCCNC(=N)N)NC(=O)[C@H](CC(C)C)NC(=O)CNC(=O)[C@H](CCC(N)=O)NC(=O)[C@H](Cc2ccccc2)NC(=O)[C@H](CC(N)=O)NC(=O)[C@H](CC(N)=O)NC(=O)[C@H](CCSC)NC(=O)[C@H](CO)NC(=O)[C@H](CCC(N)=O)NC(=O)[C@H](CCCNC(=N)N)NC(=O)[C@@H](N)Cc2ccc(O)cc2)C(=O)N[C@@H](CCCNC(=N)N)C(=O)N[C@@H](Cc2ccccc2)C(=O)NCC(=O)N[C@@H]([C@@H](C)O)C(=O)N1)[C@@H](C)O)C(C)C)C(=O)N[C@@H](Cc1ccc(O)cc1)C(=O)N[C@@H](CCC(N)=O)C(=O)N[C@@H](Cc1ccccc1)C(=O)N[C@H](C(=O)N[C@@H](CC(=O)O)C(=O)N[C@@H](CCCCN)C(=O)N[C@@H](CC(=O)O)C(=O)N[C@@H](CCCCN)C(=O)N[C@@H](CC(=O)O)C(=O)N[C@@H](CC(N)=O)C(=O)N[C@H](C(=O)N[C@@H](C)C(=O)N1CCC[C@H]1C(=O)N[C@@H](CCCNC(=N)N)C(=O)N[C@@H](CO)C(=O)N[C@@H](CCCCN)C(=O)N[C@H](C(=O)N[C@@H](CO)C(=O)N1CCC[C@H]1C(=O)N[C@@H](CCC(N)=O)C(=O)NCC(=O)N[C@@H](Cc1ccc(O)cc1)C(=O)NCC(=O)O)[C@@H](C)CC)C(C)C)[C@@H](C)O` the recovery was 89.2% (human EDTA plasma; 3 h, ambient temperature, storage stability; relative to: untreated samples).
For `CN[C@H]1CCN(C(=O)c2c(C)cc(C(F)(F)F)nc2-c2ccnc3cc(CN4C(=O)C5C(C4=O)C5(C)C)sc23)C1` (some centres unmarked), “blood monocyte count” read “decreased” (CT26 tumour-bearing mouse, blood; dose not given).
`CSCC[C@H](NC(=O)[C@@H](NC(=O)[C@H](CC(C)C)NC(=O)[C@@H](NC(=O)[C@H](Cc1c[nH]cn1)NC(=O)CCCCCNC(=O)[C@H](CCCNC(=N)N)NC(=O)[C@H](CCCNC(=N)N)NC(=O)[C@H](CCCNC(=N)N)NC(=O)[C@H](CCC(N)=O)NC(=O)[C@H](CCCNC(=N)N)NC(=O)[C@H](CCCNC(=N)N)NC(=O)[C@H](CCCCN)NC(=O)[C@H](CCCCN)NC(=O)[C@H](CCCNC(=N)N)NC(=O)CNC(=O)[C@@H](N)Cc1ccc(O)cc1)C(C)C)C(C)C)C(=O)N[C@@H](CS)C(=O)N[C@@H](C)C(=O)N[C@H](C(N)=O)[C@@H](C)O` has a Lymph of 78% and 91% and 73% (C57BL/6J mice; Alzet osmotic pump, 3 mg/kg, 8 weeks; relative to: leukocytes).
`N=C(N)NCCC[C@@H](NC(=O)[C@H](N)Cc1c[nH]c2ccccc12)C(=O)N[C@H](CCCCN)C(=O)N[C@H](Cc1c[nH]c2ccccc12)C(=O)N[C@H](CCCNC(=N)N)C(=O)N[C@H](CCCCN)C(=O)N[C@H](Cc1c[nH]c2ccccc12)C(=O)N[C@H](CCCNC(=N)N)C(=O)N[C@H](CCCCN)C(=O)N[C@H](Cc1c[nH]c2ccccc12)C(=O)N[C@H](CCCNC(=N)N)C(=O)N[C@H](CCCCN)C(N)=O` gave an organ index of 0.522 (mouse, spleen; intravenous, 40 mg/kg single dose, 7 days).
`CS(=O)(=O)c1cc(Cl)cc(-c2cc(Cl)c(Cl)cc2Cl)c1Cl` — result for “final permeate concentration”: 13.7 nM (ultrafiltration; cow milk whey; 500 nM nominal in whole milk).
The compound remaining of `C#Cc1c(F)ccc2cc(O)cc(-c3ncc4c(N5CC6CCC(C5)N6C(=O)OC(OC(=O)CCC)C(C)C)nc(OC[C@@]56CCCN5C[C@H](F)C6)nc4c3F)c12` (some centres unmarked) is reported as 96.7% (chemical stability; simulated intestinal fluid; 1 µM, 30 min).
The tissue distribution of `CSCC[C@H](N)C(=O)N[C@@H](C)C(=O)N[C@@H](CCCNC(=N)N)C(=O)N[C@@H](CCCNC(=N)N)C(=O)N[C@@H](CC(=O)O)C(=O)N[C@@H](CCCCN)C(=O)N[C@H](C(=O)N[C@@H](CC(=O)O)C(=O)N[C@@H](Cc1ccccc1)C(=O)N[C@@H](C)C(=O)N[C@@H](CCCNC(=N)N)C(=O)N[C@@H](CCCNC(=N)N)C(=O)N[C@@H](CCCNC(=N)N)C(=O)N[C@@H](CCCNC(=N)N)C(=O)NCCCCCC(=O)NCCCCC(NC(=O)CCCCCNC(=O)[C@H](CCCNC(=N)N)NC(=O)[C@H](CCCNC(=N)N)NC(=O)[C@H](CCCNC(=N)N)NC(=O)[C@H](CCCNC(=N)N)NC(=O)[C@H](C)NC(=O)[C@H](Cc1ccccc1)NC(=O)[C@H](CC(=O)O)NC(=O)[C@@H](NC(=O)[C@H](CCCCN)NC(=O)[C@H](CC(=O)O)NC(=O)[C@H](CCCNC(=N)N)NC(=O)[C@H](CCCNC(=N)N)NC(=O)[C@H](C)NC(=O)[C@@H](N)CCSC)[C@@H](C)O)C(=O)NCCCCC(NC(=O)C(CCCCNC(=O)CCCCCNC(=O)[C@H](CCCNC(=N)N)NC(=O)[C@H](CCCNC(=N)N)NC(=O)[C@H](CCCNC(=N)N)NC(=O)[C@H](CCCNC(=N)N)NC(=O)[C@H](C)NC(=O)[C@H](Cc1ccccc1)NC(=O)[C@H](CC(=O)O)NC(=O)[C@@H](NC(=O)[C@H](CCCCN)NC(=O)[C@H](CC(=O)O)NC(=O)[C@H](CCCNC(=N)N)NC(=O)[C@H](CCCNC(=N)N)NC(=O)[C@H](C)NC(=O)[C@@H](N)CCSC)[C@@H](C)O)NC(=O)CCCCCNC(=O)[C@H](CCCNC(=N)N)NC(=O)[C@H](CCCNC(=N)N)NC(=O)[C@H](CCCNC(=N)N)NC(=O)[C@H](CCCNC(=N)N)NC(=O)[C@H](C)NC(=O)[C@H](Cc1ccccc1)NC(=O)[C@H](CC(=O)O)NC(=O)[C@@H](NC(=O)[C@H](CCCCN)NC(=O)[C@H](CC(=O)O)NC(=O)[C@H](CCCNC(=N)N)NC(=O)[C@H](CCCNC(=N)N)NC(=O)[C@H](C)NC(=O)[C@@H](N)CCSC)[C@@H](C)O)C(N)=O)[C@@H](C)O` (some centres unmarked) is reported as 0.16% and 0.32% and 0.37% (C57BL/6 mouse female, brain; dose not given, 6 h; relative to: total).
The plasma concentration of `O=C(O)c1ccc(-c2nc(-c3ccccc3Cl)c3sccn23)cc1` is reported as 4.23 ng/mL and 3.98 ng/mL and 4.87 ng/mL (mouse, plasma; oral, dose not given, day 4, no 5-FU).
The albumin of `CC(C)[C@@H]1NC(=O)CNC(=O)[C@H](CC(N)=O)NC(=O)[C@H](CCCNC(=N)N)NC(=O)[C@H](Cc2ccc(O)cc2)NC(=O)[C@H](C(C)C)NC(=O)[C@@H](NC(=O)[C@@H](NC(=O)[C@H](CC(N)=O)NC(=O)[C@H](Cc2c[nH]c3ccccc23)NC(=O)[C@H](C)NC(=O)[C@H](Cc2ccccc2)NC(=O)CNC(=O)[C@H](CCCCN)NC(=O)[C@H](Cc2ccccc2)NC(=O)[C@H](Cc2ccccc2)NC(=O)[C@H](CCCCN)NC(=O)OCC2c3ccccc3-c3ccccc32)C(C)C)CSSC[C@@H](C(=O)N[C@@H](Cc2c[nH]cn2)C(=O)N[C@@H](CCCNC(=N)N)C(=O)N[C@@H](CCCNC(=N)N)C(=O)N[C@@H](C)C(=O)N[C@@H](CC(N)=O)C(N)=O)NC(=O)[C@H](C(C)C)NC(=O)[C@H](CCCNC(=N)N)NC1=O` is reported as 34 ± 0.78 g/L (ICR mouse, blood; intramammary, 10 mg/kg, day 5, 3 d dosing).
For `CC(C)(C)C(=O)OCOP(=O)(OCOC(=O)C(C)(C)C)C1CCCN(O)C1=O` (centres unmarked), the TGI was 8.5 µM (NCI-H322M).
`CC(=O)N[C@H](C(=O)N[C@@H](CCCC(=O)OC(C)(C)C)C(=O)N[C@@H](CCC1CCCCC1)C(=O)N[C@@H](CC(=O)O)C(=O)COC(=O)c1c(C)cccc1C)C(C)(C)C` has a blood concentration of 313 µM (C57BL/6N mouse, female, whole blood; intraperitoneal, dose not given, 0.25 h).
`CC[C@H](C)[C@H](NC(=O)[C@H](CCCCN)NC(=O)CNC(=O)[C@H](CC(C)C)NC(=O)[C@H](Cc1ccccc1)NC(=O)[C@H](CCCCN)NC(=O)[C@H](CO)NC(=O)[C@H](Cc1ccccc1)NC(=O)[C@H](Cc1c[nH]c2ccccc12)NC(=O)[C@H](CCC(N)=O)NC(=O)[C@@H](NC(=O)[C@H](Cc1ccccc1)NC(=O)CCCCCNC(=O)CN1CCN(CC(=O)O)CCN(CC(=O)O)CCN(CC(=O)O)CC1)C(C)C)C(=O)N[C@@H](CCC(=O)O)C(=O)N1CCC[C@H]1C(=O)N[C@H](CC(=O)O)C(=O)N[C@H](C(=O)N[C@@H](CO)C(=O)N[C@@H](CCC(N)=O)C(=O)N[C@H](C(=O)N[C@@H](CCC(N)=O)C(=O)N[C@@H](CC(=O)O)C(=O)N1CCC[C@H]1C(=O)N[C@@H](CC(N)=O)C(=O)N[C@@H](CC(=O)O)C(=O)N[C@@H](CCC(N)=O)C(=O)N[C@@H](Cc1ccc(O)cc1)C(=O)N[C@@H](CCC(=O)O)C(=O)N1CCC[C@H]1C(=O)N[C@@H](Cc1ccccc1)C(=O)O)C(C)C)C(C)C` [copper-64 labelled] has a tissue uptake of 1.83 ± 0.26 %ID/g (female mice, EMT6 tumour-bearing, spleen; 2 h, uncleavable control tracer, checkpoint inhibitor-treated).
With `C=Cc1c(C)c2cc3nc(c(CC(=O)O)c4[nH]c(cc5nc(cc1[nH]2)C(C)=C5CC)c(C)c4C(=O)O)[C@@H](CCC(=O)NCCCC[C@H](NC(C)=O)C(=O)N[C@@H](Cc1ccccc1)C(=O)N[C@@H](Cc1ccccc1)C(=O)N[C@H](C(=O)N[C@@H](CC(C)C)C(=O)N[C@@H](CCCCN)C(=O)N[C@@H](CO)C(=O)NCC(=O)N[C@@H](CCC(N)=O)C(=O)N[C@@H](Cc1ccc(O)cc1)C(=O)N[C@@H](C)C(=O)N[C@@H](CO)C(=O)N[C@@H](Cc1ccc(O)cc1)C(=O)N[C@@H](Cc1c[nH]cn1)C(=O)N[C@@H](CS)C(=O)N[C@@H](Cc1c[nH]c2ccccc12)C(=O)N[C@@H](CS)C(=O)N[C@@H](Cc1c[nH]c2ccccc12)C(=O)N[C@@H](CCCNC(=N)N)C(=O)N[C@@H](CC(=O)O)C(=O)N1CCC[C@H]1C(=O)NCC(=O)N[C@@H](CCCNC(=N)N)C(=O)N[C@@H](CO)C(=O)NCC(=O)NCC(=O)N[C@@H](CO)C(=O)N[C@@H](CCCCN)C(N)=O)C(C)C)[C@@H]3C` the blood concentration was 54400 ng/mL (mouse, blood; 24 h).
`O=C1NC2(CC2)COc2ncc(F)cc2[C@H]2COCCN2c2ccn3ncc1c3n2`: “organ-to-brain weight ratio” 28.2 ± 5.02% (Sprague-Dawley rat, male, thymus; oral, 20 mg/kg/day, 4 weeks, end of treatment).

Excerpt of the above:
The compound remaining of `C#Cc1c(F)ccc2cc(O)cc(-c3ncc4c(N5CC6CCC(C5)N6C(=O)OC(OC(=O)CCC)C(C)C)nc(OC[C@@]56CCCN5C[C@H](F)C6)nc4c3F)c12` (some centres unmarked) is reported as 96.7% (chemical stability; simulated intestinal fluid; 1 µM, 30 min).
The tissue distribution of `CSCC[C@H](N)C(=O)N[C@@H](C)C(=O)N[C@@H](CCCNC(=N)N)C(=O)N[C@@H](CCCNC(=N)N)C(=O)N[C@@H](CC(=O)O)C(=O)N[C@@H](CCCCN)C(=O)N[C@H](C(=O)N[C@@H](CC(=O)O)C(=O)N[C@@H](Cc1ccccc1)C(=O)N[C@@H](C)C(=O)N[C@@H](CCCNC(=N)N)C(=O)N[C@@H](CCCNC(=N)N)C(=O)N[C@@H](CCCNC(=N)N)C(=O)N[C@@H](CCCNC(=N)N)C(=O)NCCCCCC(=O)NCCCCC(NC(=O)CCCCCNC(=O)[C@H](CCCNC(=N)N)NC(=O)[C@H](CCCNC(=N)N)NC(=O)[C@H](CCCNC(=N)N)NC(=O)[C@H](CCCNC(=N)N)NC(=O)[C@H](C)NC(=O)[C@H](Cc1ccccc1)NC(=O)[C@H](CC(=O)O)NC(=O)[C@@H](NC(=O)[C@H](CCCCN)NC(=O)[C@H](CC(=O)O)NC(=O)[C@H](CCCNC(=N)N)NC(=O)[C@H](CCCNC(=N)N)NC(=O)[C@H](C)NC(=O)[C@@H](N)CCSC)[C@@H](C)O)C(=O)NCCCCC(NC(=O)C(CCCCNC(=O)CCCCCNC(=O)[C@H](CCCNC(=N)N)NC(=O)[C@H](CCCNC(=N)N)NC(=O)[C@H](CCCNC(=N)N)NC(=O)[C@H](CCCNC(=N)N)NC(=O)[C@H](C)NC(=O)[C@H](Cc1ccccc1)NC(=O)[C@H](CC(=O)O)NC(=O)[C@@H](NC(=O)[C@H](CCCCN)NC(=O)[C@H](CC(=O)O)NC(=O)[C@H](CCCNC(=N)N)NC(=O)[C@H](CCCNC(=N)N)NC(=O)[C@H](C)NC(=O)[C@@H](N)CCSC)[C@@H](C)O)NC(=O)CCCCCNC(=O)[C@H](CCCNC(=N)N)NC(=O)[C@H](CCCNC(=N)N)NC(=O)[C@H](CCCNC(=N)N)NC(=O)[C@H](CCCNC(=N)N)NC(=O)[C@H](C)NC(=O)[C@H](Cc1ccccc1)NC(=O)[C@H](CC(=O)O)NC(=O)[C@@H](NC(=O)[C@H](CCCCN)NC(=O)[C@H](CC(=O)O)NC(=O)[C@H](CCCNC(=N)N)NC(=O)[C@H](CCCNC(=N)N)NC(=O)[C@H](C)NC(=O)[C@@H](N)CCSC)[C@@H](C)O)C(N)=O)[C@@H](C)O` (some centres unmarked) is reported as 0.16% and 0.32% and 0.37% (C57BL/6 mouse female, brain; dose not given, 6 h; relative to: total).
